Measured values collected from several papers.
Protocols differ between the studies behind these lines. ± gives the spread as reported. Converted amounts (≈) assume the structure as drawn.
Chain of UniProt P21729 (whole entry, looked up): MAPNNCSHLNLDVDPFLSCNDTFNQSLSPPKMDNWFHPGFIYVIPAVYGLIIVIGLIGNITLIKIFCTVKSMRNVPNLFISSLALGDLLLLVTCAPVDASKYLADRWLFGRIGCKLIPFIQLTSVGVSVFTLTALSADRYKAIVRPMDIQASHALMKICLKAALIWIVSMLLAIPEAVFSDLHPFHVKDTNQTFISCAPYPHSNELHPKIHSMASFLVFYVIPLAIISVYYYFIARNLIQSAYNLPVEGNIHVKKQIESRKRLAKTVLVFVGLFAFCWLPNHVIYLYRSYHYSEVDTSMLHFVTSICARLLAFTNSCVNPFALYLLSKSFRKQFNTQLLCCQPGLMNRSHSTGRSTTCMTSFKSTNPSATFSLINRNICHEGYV

Structure (SMILES)	target or system	assay	test system	conditions	how to read	quantity	value
CSCC[C@H](NC(=O)CNC(=O)[C@H](CC(=O)O)NC(=O)[C@@H](NC(=O)[C@@H](NC(=O)[C@@H](NC(=O)CNC(=O)[C@H](CCC(N)=O)NC(=O)[C@H](CCSC)NC(=O)[C@H](CC(=O)O)NC(=O)[C@H](C)NC(=O)[C@H](C)NC(=O)[C@@H](NC(=O)[C@H](CO)NC(=O)[C@@H](N)CC(C)C)[C@@H](C)O)C(C)C)C(C)C)[C@@H](C)O)C(=O)N[C@@H](C)C(=O)N[C@@H](CO)C(=O)NCC(=O)N[C@@H](CC(C)C)C(=O)N[C@@H](CC(=O)O)C(=O)N[C@@H](CCCCN)C(=O)N[C@@H](CC(=O)O)C(=O)N[C@@H](Cc1ccc(O)cc1)C(=O)N[C@@H](CC(C)C)C(=O)N[C@@H](CCCCN)C(=O)N1CCC[C@H]1C(=O)N[C@@H](CC(=O)O)C(=O)N[C@@H](CC(=O)O)C(=O)O	–	–	p53-positive advanced solid tumour patients	dose not given	–	median overall survival	28 weeks
O=C1CC(=O)N(c2ccccc2)c2cc(Cl)ccc2N1	–	electronic von Frey	wild-type mouse, CCI neuropathy	oral, 3, 10 or 30 mg/kg, 7 to 14 days after CCI	–	mechanical hyperalgesia	decreased
COC(=O)C1=CO[C@@H](O)[C@@H]2C(Cn3cc(C4(O)CCCC4)nn3)=CC[C@H]12	SK-N-SH	neuroprotection, MTT	–	0.15 µM, 24 h, with: 250 µM H2O2	–	viability	79.9%
CC[C@H](C)[C@@H]1NC(=O)CNC(=O)[C@@H]2Cc3c([nH]c4ccc(OC(=O)OCc5ccc(NC(=O)[C@H](CCCNC(N)=O)NC(=O)[C@@H](NC(=O)CCc6cn(CC(=O)N[C@H](Cc7ccccc7)C(=O)N[C@H]7CSSC[C@@H](C(=O)N[C@H](C(=O)O)[C@@H](C)O)NC(=O)[C@H]([C@@H](C)O)NC(=O)[C@H](CCCCN)NC(=O)[C@@H](Cc8c[nH]c9ccccc89)NC(=O)[C@H](Cc8ccc(O)cc8)NC7=O)nn6)C(C)C)cc5)cc34)SC[C@H](NC(=O)CNC1=O)C(=O)N[C@@H](CC(N)=O)C(=O)N1C[C@H](O)C[C@H]1C(=O)N[C@@H]([C@@H](C)[C@@H](O)CO)C(=O)N2	AR-42J	cell growth or viability, MTS	–	–	–	EC50	0.0023 µM
COCO[C@H]1[C@H](O)[C@@H](N)[C@@H](O[C@H]2[C@H](O[C@@H]3O[C@H](CO)[C@@H](O[C@H]4O[C@@H](CN)[C@@H](O)[C@H](O)[C@H]4N)[C@H]3O)[C@@H](O)[C@H](N)C[C@@H]2N)O[C@@H]1CO	ribosome with mitochondrial A1555G A site	luciferase translation, cell-free translation	–	–	–	IC50	46.9 ± 4.07 µg/mL
CC[C@H](C)[C@H](NC(=O)[C@H](CCCCN)NC(=O)CNC(=O)[C@H](CC(C)C)NC(=O)[C@H](Cc1ccccc1)NC(=O)[C@H](CCCCN)NC(=O)[C@H](CO)NC(=O)[C@H](Cc1ccccc1)NC(=O)[C@H](Cc1c[nH]c2ccccc12)NC(=O)[C@H](CCC(N)=O)NC(=O)[C@@H](NC(=O)[C@H](Cc1ccccc1)NC(=O)CCCCCNC(=O)CN1CCN(CC(=O)O)CCN(CC(=O)O)CCN(CC(=O)O)CC1)C(C)C)C(=O)N[C@@H](CCC(=O)O)C(=O)N1CCC[C@H]1C(=O)N[C@@H](CC(=O)O)C(=O)N[C@H](C(=O)N[C@@H](CO)C(=O)N[C@@H](CCC(N)=O)C(=O)N[C@H](C(=O)N[C@@H](CCC(N)=O)C(=O)N[C@@H](CC(=O)O)C(=O)N1CCC[C@H]1C(=O)N[C@@H](CC(N)=O)C(=O)N[C@@H](CC(=O)O)C(=O)N[C@@H](CCC(N)=O)C(=O)N[C@@H](Cc1ccc(O)cc1)C(=O)N[C@@H](CCC(=O)O)C(=O)N1CCC[C@H]1C(=O)N[C@@H](Cc1ccccc1)C(=O)O)C(C)C)C(C)C [copper-64 labelled]	–	PET/CT	mice, LPS lung injury	dose not given, 4 d, outcome: increased, with: LPS 0.1 or 3 mg/kg intratracheal	reference: vehicle	lung uptake	increased
N=C(N)NCCC[C@@H]1NC(=O)[C@H](CCCCNC(=O)CCOCCOCCOCCOCCNC(=O)CC[C@H](NC(=O)CCOCCOCCOCCOCCNC(=O)CC[C@H](NC(=O)CN2CCN(CC(=O)O)CCN(CC(=O)O)CCN(CC(=O)O)CC2)C(=O)NCCOCCOCCOCCOCCC(=O)N[C@@H](CCC(=O)NCCOCCOCCOCCOCCC(=O)NCCCC[C@@H]2NC(=O)[C@@H](Cc3ccccc3)NC(=O)[C@H](CC(=O)O)NC(=O)CNC(=O)[C@H](CCCNC(=N)N)NC2=O)C(=O)NCCOCCOCCOCCOCCC(=O)NCCCC[C@@H]2NC(=O)[C@@H](Cc3ccccc3)NC(=O)[C@H](CC(=O)O)NC(=O)CNC(=O)[C@H](CCCNC(=N)N)NC2=O)C(=O)NCCOCCOCCOCCOCCC(=O)NCCCC[C@@H]2NC(=O)[C@@H](Cc3ccccc3)NC(=O)[C@H](CC(=O)O)NC(=O)CNC(=O)[C@H](CCCNC(=N)N)NC2=O)NC(=O)[C@@H](Cc2ccccc2)NC(=O)[C@H](CC(=O)O)NC(=O)CNC1=O [indium-111 labelled]	–	–	female athymic nude mice, lungs	intravenous, 3 µCi, 4 h, U-87 MG glioma xenograft	–	tissue uptake	2.18 ± 0.26 %ID/g
COCOC[C@H]1O[C@H](O[C@H]2[C@H](O[C@@H]3O[C@H](CO)[C@@H](O[C@H]4O[C@@H](CN)[C@@H](O)[C@H](O)[C@H]4N)[C@H]3O)[C@@H](O)[C@H](N)C[C@@H]2N)[C@H](N)[C@@H](O)[C@@H]1OCOC	Mycobacterium smegmatis ribosome A1408G	translation, cell-free luciferase synthesis	–	–	–	IC50	80.4 ± 20.2 µg/mL
C[C@@](O)(C(F)F)[C@H](NC(=O)c1ccc(C#CC#CC2CC2)cc1)C(=O)NO	Citrobacter freundii	agar dilution	ESBL and carbapenemase producers	–	–	MIC50	0.032 µg/mL (≈ 0.085 µM)
CCCC[C@H](NC(=O)CNC(=O)CNC(=O)c1ccc(NN)nc1)C(=O)N[C@H]1CC(=O)NCCCC[C@@H](C(N)=O)NC(=O)[C@H](Cc2c[nH]c3ccccc23)NC(=O)[C@H](CCCNC(=N)N)NC(=O)[C@@H](Cc2ccccc2)NC(=O)[C@H](Cc2c[nH]cn2)NC1=O [technetium-99m labelled]	–	–	C57 mouse, B16/F1 melanoma-bearing, kidneys	intravenous, 4 h	–	tissue uptake	5.29 ± 1.84 %ID/g
CCCNC(=O)[C@H](CC(C)C)NC(=O)[C@H](Cc1c[nH]cn1)NC(=O)CNC(=O)[C@@H](NC(=O)[C@H](C)NC(=O)[C@H](Cc1c[nH]c2ccccc12)NC(=O)[C@H](CCC(N)=O)NC(=O)[C@@H](Cc1ccccc1)NC(=O)CCCCCNC(=O)CN1CCN(CC(=O)O)CCN(CC(=O)O)CCN(CC(=O)O)CC1)C(C)C [indium-111 labelled]	Gastrin-releasing peptide receptor (Mus musculus, UniProt P21729)	biodistribution	CF-1 mice, brain	intravenous, 1 h, with: bombesin 100 µg, blocking	–	tissue uptake	0.02 %ID/g
CC[C@H](C)[C@H](NC(=O)[C@H](CCCCN)NC(=O)[C@H](CCCCN)NC(=O)[C@H](C)NC(=O)[C@@H](NC(=O)[C@H](C)NC(=O)[C@H](CC(C)C)NC(=O)[C@H](CC(C)C)NC(=O)[C@H](C)NC(=O)[C@H](CCCCN)NC(=O)[C@H](CC(C)C)NC(=O)[C@H](CC(N)=O)NC(=O)[C@@H](N)CC(C)C)C(C)C)C(=O)N[C@@H](CC(C)C)C(N)=O	H157	MTT	–	24 h	–	IC50	13.6 µM
C[C@@H](NC(=O)[C@@H](CCC(N)=O)NC(=O)[C@@H](C)NC(=O)[C@@H](CCCCN)NC(=O)[C@@H](CCC(N)=O)NC(=O)[C@@H](C)NC(=O)[C@@H](CCCCN)NC(=O)[C@@H](CCC(N)=O)NC(=O)[C@@H](C)NC(=O)[C@@H](CCC(N)=O)NC(=O)[C@@H](CCCCN)NC(=O)[C@@H](C)NC(=O)[C@@H](CCC(N)=O)NC(=O)[C@@H](CCCCN)NC(=O)[C@@H](C)NC(=O)[C@@H](CCC(N)=O)NC(=O)[C@@H](C)NC(=O)[C@@H](CCCCN)NC(=O)[C@@H](CCC(N)=O)NC(=O)[C@@H](C)NC(=O)[C@@H](CCCCN)NC(=O)[C@@H](CO)NC(=O)[C@@H](Cc1ccc(O)cc1)NC(=O)CNC(=O)CNC(=O)CN)C(=O)N[C@H](CCCCN)C(=O)N[C@H](CCC(N)=O)C(=O)N[C@H](C)C(=O)N[C@H](CCCCN)C(=O)N[C@H](CCC(N)=O)C(=O)O	–	–	human ALκ4 amyloid extract	1 h, room temperature	reference: 1 M NaCl over PBS	binding ratio	0.035
COC(=O)C1=CO[C@@H](OC(C)=O)[C@@H]2C(Cn3cc(CN4C(=O)c5ccccc5C4=O)nn3)=CC[C@H]12	SK-N-SH	neuroprotection, MTT	–	0.075 µM, 24 h, with: 250 µM H2O2	–	viability	53.5 ± 0.6%
CSCC[C@@H]1NC(=O)[C@H](CCCNC(=N)N)NC(=O)[C@H](Cc2ccc(O)cc2)NC(=O)[C@@H](NC(=O)[C@H](CCCNC(=N)N)NC(=O)[C@H](CCCCN)NC(=O)[C@H](CC(=O)O)NC(=O)[C@H](C)N)CSSC[C@@H](C(=O)N[C@@H](CCCNC(=N)N)C(=O)N[C@@H](Cc2ccc(O)cc2)C(=O)NCC(=O)O)NC(=O)CNC(=O)[C@H](CCCCN)NC(=O)[C@H](CCCCN)NC(=O)[C@@H]2CSSC[C@H](NC1=O)C(=O)N[C@@H](CCC(N)=O)C(=O)N[C@@H](CCCNC(=N)N)C(=O)N[C@@H](Cc1ccc(O)cc1)C(=O)N[C@@H](Cc1c[nH]cn1)C(=O)N[C@@H](CCC(N)=O)C(=O)N[C@@H](CCCNC(=N)N)C(=O)N[C@@H](CCCNC(=N)N)C(=O)N[C@@H](CCC(N)=O)C(=O)N[C@@H](CCCNC(=N)N)C(=O)N[C@@H](CCCNC(=N)N)C(=O)N[C@@H](CCC(N)=O)C(=O)N2	rat Kv1.6	conductance-voltage relation, electrophysiology	–	concentration not given	–	V1/2 of activation	12.9 ± 0.9 mV
CC1OCC2OC(OC3C(N)CC(N)C(O)C3OC3OC(CO)C(OC4OC(CN)C(O)C(O)C4N)C3O)C(N)C(O)C2O1 (stereo not drawn)	ribosome with mitochondrial A site	luciferase translation, cell-free translation	–	–	–	IC50	206 ± 112 µg/mL
CSCC[C@H](NC(=O)[C@H](CC(C)C)NC(=O)[C@H](Cc1c[nH]cn1)NC(=O)CNC(=O)[C@@H](NC(=O)[C@H](C)NC(=O)[C@H](Cc1c[nH]c2ccccc12)NC(=O)[C@H](CCC(N)=O)NC(=O)CCCCCNC(=O)CNC(=O)CNC(=O)CNC(=O)CSC(C)=O)C(C)C)C(N)=O [technetium-99m labelled]	–	–	nude mouse, PC-3 xenograft, heart	30 min, with: excess unlabelled conjugate	–	tissue uptake	0.54 ± 0.04 %ID/g
NC[C@@H]1O[C@H](O[C@H]2[C@@H](O)[C@H](O[C@@H]3[C@@H](O)[C@H](N)C[C@H](N)[C@H]3O[C@H]3O[C@@H]4COCO[C@H]4[C@H](O)[C@H]3N)O[C@@H]2CO)[C@H](N)[C@@H](O)[C@@H]1O	ribosome with mitochondrial A site	luciferase translation, cell-free translation	–	–	–	IC50	325 ± 124 µg/mL
COC(=O)C1=CO[C@@H](O)[C@@H]2C(Cn3cc(-c4ccc(F)cc4)nn3)=CC[C@H]12	SK-N-SH	neuroprotection, MTT	–	0.15 µM, 24 h, with: 250 µM H2O2	–	viability	52.6 ± 1.6%
CCCCCCCCC(=O)NCc1ccc(O)c(OC)c1	mAb 6-AT6	antibody binding, indirect competitive ELISA	–	with: coating antigen 6-OVA	–	IC50	> 4 µg/mL
COC(=O)C1=CO[C@@H](OC(C)=O)[C@@H]2C(Cn3cc(CCBr)nn3)=CC[C@H]12	SK-N-SH	neuroprotection, MTT	–	0.075 µM, 24 h, with: 250 µM H2O2	–	viability	80.9 ± 0.4%
N=C(N)NCCC[C@@H]1NC(=O)[C@H](CCCCNC(=O)CC[C@H](NC(=O)CCOCCOCCOCCOCCNC(=O)CN2CCN(CC(=O)O)CCN(CC(=O)O)CCN(CC(=O)O)CC2)C(=O)NCCCC[C@@H]2NC(=O)[C@@H](Cc3ccccc3)NC(=O)[C@H](CC(=O)O)NC(=O)CNC(=O)[C@H](CCCNC(=N)N)NC2=O)NC(=O)[C@@H](Cc2ccccc2)NC(=O)[C@H](CC(=O)O)NC(=O)CNC1=O [indium-111 labelled]	–	–	female athymic nude mice, blood	intravenous, 3 µCi, 1 h, U-87 MG glioma xenograft	–	tissue uptake	0.51 ± 0.09 %ID/g
CSC(=NNC(=O)c1ccc([N+](=O)[O-])cc1)SC	Mycobacterium	–	An5	–	–	MIC	6.2 µg/mL (≈ 21.7 µM)
CN[C@](C)(C[18F])C(=O)O	A549 tumour model	–	host not given, heart	15 min, tumour-bearing	–	tracer uptake	3.7 %ID/g

Repeated from above:
Structure (SMILES)	target or system	assay	test system	conditions	how to read	quantity	value
COC(=O)C1=CO[C@@H](OC(C)=O)[C@@H]2C(Cn3cc(CN4C(=O)c5ccccc5C4=O)nn3)=CC[C@H]12	SK-N-SH	neuroprotection, MTT	–	0.075 µM, 24 h, with: 250 µM H2O2	–	viability	53.5 ± 0.6%
CN[C@](C)(C[18F])C(=O)O	A549 tumour model	–	host not given, heart	15 min, tumour-bearing	–	tracer uptake	3.7 %ID/g
